Experimental data from different studies.
Protocols differ between the studies behind these lines. Several values in a cell are separate wells, animals, samples, runs or records. ± gives the spread as reported.

C[C@H](O)[C@@H](NC(=O)[C@H]1CCCN1C(=O)[C@@H](CCCCN)NC(=O)[C@@H](CO)NC(=O)[C@@H](Cc1ccc(O)cc1)NC(=O)[C@@H](CC(N)=O)NC(=O)CCOCCOCCOCCNC(=O)CN1CCN(CC(=O)O)CCN(CC(=O)O)CCN(CC(=O)O)CC1)C(=O)N[C@H](CC(=O)O)C(=O)N[C@H](CCCNC(=N)N)C(=O)N[C@H](CCC(N)=O)C(=O)N[C@H](Cc1ccc(O)cc1)C(=O)N[C@H](Cc1c[nH]cn1)C(=O)N[C@H](Cc1ccccc1)C(N)=O [copper-64 labelled] — tissue uptake (C57BL/6J mice, lung; intravenous, 1.85 MBq, 0.6667 h, radiolabelled): 1.31 ± 0.07 %ID/g
O=C1NC2(CC2)COc2ncc(F)cc2[C@H]2COCCN2c2ccn3ncc1c3n2 — glucose (Sprague-Dawley rat, male, serum; oral, 10 mg/kg/day, 4 weeks daily, end of recovery period): 8.46 ± 0.96 mmol/L
Cc1ccc(OCCN(C)C)cc1C(=O)N[C@H](C)c1cc(-c2ccnn2C)nc2ccccc12 — viability (Vero E6; 7.812 µM): 99.1% and 95.1%
CC[C@H](C)[C@H](NC(=O)[C@H](CCCCN)NC(=O)CNC(=O)[C@H](CC(C)C)NC(=O)[C@H](Cc1ccccc1)NC(=O)[C@H](CCCCN)NC(=O)[C@H](CO)NC(=O)[C@H](Cc1ccccc1)NC(=O)[C@H](Cc1c[nH]c2ccccc12)NC(=O)[C@H](CCC(N)=O)NC(=O)[C@@H](NC(=O)[C@H](Cc1ccccc1)NC(=O)CCCCCNC(=O)CN1CCN(CC(=O)O)CCN(CC(=O)O)CCN(CC(=O)O)CC1)C(C)C)C(=O)N[C@@H](CCC(=O)O)C(=O)N1CCC[C@H]1C(=O)N[C@@H](CC(=O)O)C(=O)N[C@H](C(=O)N[C@@H](CO)C(=O)N[C@@H](CCC(N)=O)C(=O)N[C@H](C(=O)N[C@@H](CCC(N)=O)C(=O)N[C@@H](CC(=O)O)C(=O)N1CCC[C@H]1C(=O)N[C@@H](CC(N)=O)C(=O)N[C@@H](CC(=O)O)C(=O)N[C@@H](CCC(N)=O)C(=O)N[C@@H](Cc1ccc(O)cc1)C(=O)N[C@@H](CCC(=O)O)C(=O)N1CCC[C@H]1C(=O)N[C@@H](Cc1ccccc1)C(=O)O)C(C)C)C(C)C [copper-64 labelled] — SUVmean (dynamic PET; mouse both sexes, CT26 tumour, checkpoint inhibitor-treated, tumour; intravenous, 100 µCi/mouse, 210 s): 2.58 SUV
N#[11C]c1ccc(-c2csc(NN=C3CCCC3)n2)cc1 — peak radioactivity uptake (dynamic PET/CT; C57BL/6 mouse, kidneys; intravenous, dose not given, 1 min): 1.1 SUV
CC(C(=O)O)n1nc(Cn2cc3cc(OCC[18F])c(Cl)cc3n2)c2ccccc2c1=O (racemic) — lipophilic radiometabolite (HPLC; nonhuman primate, plasma; 60 min post-injection; reference: plasma radioactivity): 3%
CSCC[C@H](N)C(=O)N[C@@H](C)C(=O)N[C@@H](CCCNC(=N)N)C(=O)N[C@@H](CCCNC(=N)N)C(=O)N[C@@H](CC(=O)O)C(=O)N[C@@H](CCCCN)C(=O)N[C@H](C(=O)N[C@@H](CC(=O)O)C(=O)N[C@@H](Cc1ccccc1)C(=O)N[C@@H](C)C(=O)N[C@@H](CCCNC(=N)N)C(=O)N[C@@H](CCCNC(=N)N)C(=O)N[C@@H](CCCNC(=N)N)C(=O)N[C@@H](CCCNC(=N)N)C(=O)NCCCCCC(=O)NCCCCC(NC(=O)CCCCCNC(=O)[C@H](CCCNC(=N)N)NC(=O)[C@H](CCCNC(=N)N)NC(=O)[C@H](CCCNC(=N)N)NC(=O)[C@H](CCCNC(=N)N)NC(=O)[C@H](C)NC(=O)[C@H](Cc1ccccc1)NC(=O)[C@H](CC(=O)O)NC(=O)[C@@H](NC(=O)[C@H](CCCCN)NC(=O)[C@H](CC(=O)O)NC(=O)[C@H](CCCNC(=N)N)NC(=O)[C@H](CCCNC(=N)N)NC(=O)[C@H](C)NC(=O)[C@@H](N)CCSC)[C@@H](C)O)C(=O)NCCCCC(NC(=O)C(CCCCNC(=O)CCCCCNC(=O)[C@H](CCCNC(=N)N)NC(=O)[C@H](CCCNC(=N)N)NC(=O)[C@H](CCCNC(=N)N)NC(=O)[C@H](CCCNC(=N)N)NC(=O)[C@H](C)NC(=O)[C@H](Cc1ccccc1)NC(=O)[C@H](CC(=O)O)NC(=O)[C@@H](NC(=O)[C@H](CCCCN)NC(=O)[C@H](CC(=O)O)NC(=O)[C@H](CCCNC(=N)N)NC(=O)[C@H](CCCNC(=N)N)NC(=O)[C@H](C)NC(=O)[C@@H](N)CCSC)[C@@H](C)O)NC(=O)CCCCCNC(=O)[C@H](CCCNC(=N)N)NC(=O)[C@H](CCCNC(=N)N)NC(=O)[C@H](CCCNC(=N)N)NC(=O)[C@H](CCCNC(=N)N)NC(=O)[C@H](C)NC(=O)[C@H](Cc1ccccc1)NC(=O)[C@H](CC(=O)O)NC(=O)[C@@H](NC(=O)[C@H](CCCCN)NC(=O)[C@H](CC(=O)O)NC(=O)[C@H](CCCNC(=N)N)NC(=O)[C@H](CCCNC(=N)N)NC(=O)[C@H](C)NC(=O)[C@@H](N)CCSC)[C@@H](C)O)C(N)=O)[C@@H](C)O (stereo partly drawn) — tissue distribution (C57BL/6 mouse female, heart; dose not given, 6 h; reference: total): 0.95% and 0.67% and 1.01%
CCCC[C@H]1C(=O)N(C)[C@@H](CCCC)C(=O)N[C@@H](CCCNC(=O)CN2CCN(CC(=O)O)CCN(CC(=O)O)CCN(CC(=O)O)CC2)C(=O)N[C@H](C(=O)NCC(N)=O)CSCC(=O)N[C@@H](Cc2ccc(O)cc2)C(=O)N(C)[C@@H](C)C(=O)N[C@@H](CC(N)=O)C(=O)N2CCC[C@H]2C(=O)N[C@@H](Cc2c[nH]cn2)C(=O)N[C@@H](CC(C)C)C(=O)N(C)CC(=O)N[C@@H](Cc2c[nH]c3ccccc23)C(=O)N[C@@H](CO)C(=O)N[C@@H](Cc2c[nH]c3ccccc23)C(=O)N1C [gallium-68 labelled] — tissue uptake (NOD/SCID mice with CHO-hPD-L1 xenograft, stomach; 120 min post injection): 2.86 ± 1.6 %ID/g
C=Cc1c(C)c2cc3nc(c(CC(=O)[O-])c4[n-]c(cc5nc(cc1[n-]2)C(C)=C5CC)c(C)c4C(=O)[O-])C(CCC(=O)[O-])C3C.[Cu+2].[Na+].[Na+].[Na+] (stereo not drawn) — serum AST (Wistar rat, female; oral, 250 mg/kg daily, 28 days): 108 ± 17.6 U/L
CC(=O)N[C@H](C(=O)N[C@@H](CCCC(=O)OC(C)(C)C)C(=O)N[C@@H](CCC1CCCCC1)C(=O)N[C@@H](CC(=O)O)C(=O)COC(=O)c1c(C)cccc1C)C(C)(C)C — concentration (mouse, whole blood; intraperitoneal, dose not given, 1 h): 742 µM
CN1Cc2cc(Cl)ccc2-n2c(nnc2C2CCN(c3cccc([18F])n3)CC2)C1 — tissue uptake (C57BL/6 mouse male, bone; intravenous, dose not given, 5 min, added: blocking agent 10 mg/kg): 2.02 ± 1.32 %ID/g
CC(C)C[C@H](NC(=O)CNC(=O)[C@H](Cc1ccccc1)NC(=O)[C@@H](NC(=O)[C@@H](NC(=O)c1cccc(S(=O)(=O)F)c1)[C@@H](C)O)C(C)C)C(=O)N[C@@H](CC(N)=O)C(=O)N[C@H](C(=O)N[C@@H](Cc1c[nH]c2ccccc12)C(=O)N[C@@H](CCCCN)C(=O)N[C@@H](CCCNC(=N)N)C(=O)N[C@@H](Cc1ccc(O)cc1)C(=O)N[C@@H](CO)C(=O)N[C@@H](CCCCN)C(=O)NCC(=O)N[C@@H](CCCCNc1ccc([N+](=O)[O-])cc1[N+](=O)[O-])C(N)=O)C(C)C — degradation half-life (chemical stability, LC-MS, UV trace; PBS/DMSO/water; 52 µM, 10% DMSO, 80% water): ~24 h
CSCC[C@H](NC(=O)[C@@H](NC(=O)[C@H](CC(C)C)NC(=O)[C@@H](NC(=O)[C@H](Cc1c[nH]cn1)NC(=O)CCCCCNC(=O)[C@H](CCCNC(=N)N)NC(=O)[C@H](CCCNC(=N)N)NC(=O)[C@H](CCCNC(=N)N)NC(=O)[C@H](CCC(N)=O)NC(=O)[C@H](CCCNC(=N)N)NC(=O)[C@H](CCCNC(=N)N)NC(=O)[C@H](CCCCN)NC(=O)[C@H](CCCCN)NC(=O)[C@H](CCCNC(=N)N)NC(=O)CNC(=O)[C@@H](N)Cc1ccc(O)cc1)C(C)C)C(C)C)C(=O)N[C@@H](CS)C(=O)N[C@@H](C)C(=O)N[C@H](C(N)=O)[C@@H](C)O — serum Triglycerides (C57BL/6J mice; Alzet osmotic pump, 3 mg/kg, 8 weeks): 167 mg/dL and 106 mg/dL and 68 mg/dL
O=C(c1cc(Cc2n[nH]c(=O)c3ccccc23)ccc1F)N1CC(CNC2CC2)C1 — Cmax (female Wistar Han rat; oral, 30 mg/kg, day 1): 5710 ng/mL
Cc1ccc(OCCN(C)C)cc1C(=O)N[C@H](C)c1cc(-c2cccs2)nc2ccccc12 — viability (Vero E6; 15.62 µM): 21% and 22.5%
